{"data": "Measured values collected from several papers", "note": "A part holds a random share of what one study measured. Values joined by “and” are separate records of one study, mostly repeats; a detail may differ. Positions count from the first letter of the parent shown."}
{"data": "Series 1", "target": "RING finger protein unkempt homolog, zinc fingers 1-6, SBP tag (UNK, Homo sapiens, UniProt Q9C0B0, residues 30-357)", "technique": "RNA Bind-n-Seq", "form": "RNA", "sample": "in vitro", "concentration": "100 nM", "notes": "RNA with constant flanks, vertebrate orthologous sites, ends assumed", "relative to": "input RNA pool", "reading": "higher = stronger binding", "constant ends, left off below": "GGGAGUUCUACAGUCCGACGAUC … CAACAGAGGAUUGAGCAUCA", "UniProt Q9C0B0, sequence (30-357, looked up)": "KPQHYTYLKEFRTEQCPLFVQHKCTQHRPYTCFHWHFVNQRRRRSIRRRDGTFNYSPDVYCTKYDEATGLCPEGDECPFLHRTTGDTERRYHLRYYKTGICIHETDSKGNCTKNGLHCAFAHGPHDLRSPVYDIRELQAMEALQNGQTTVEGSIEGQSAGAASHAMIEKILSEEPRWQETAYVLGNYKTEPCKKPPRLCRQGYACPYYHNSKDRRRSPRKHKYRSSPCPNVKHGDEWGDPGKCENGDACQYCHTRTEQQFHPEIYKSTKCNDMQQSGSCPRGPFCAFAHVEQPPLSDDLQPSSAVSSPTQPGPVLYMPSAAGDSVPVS"}
{"Oligonucleotide": "CAAGGUGGGACCCGGGACCCACUGCUCAGUGGCCCGCUGGCCACGUCAGCCAAGCCACUUUAGGUCCAUUUUUUAUUUUAACAGUGCUCUUCCAUUCUGUGCAUAAGCCCGAGAUUUGGA", "bound/input enrichment": "2.11 ratio"}
{"Oligonucleotide": "UCUCCUCACACUCUUACAUGAGUGGAUUAUUAUUUUCUUUUUUUUUUUACAUUUUUGUAUAGAAAACAAAUUCAUUUAAACAAACUUAUUAUUAUUAUUUUUUACAAAAUAUAUAUAUGG", "bound/input enrichment": "3.98 ratio"}
{"Oligonucleotide": "AAAUGGCUUCUGCCCCAUUAAGAAGAGUAAAAAUAGUCCCGCAACUAUAAAGCUCCUCAAUAGCUAUUUUUAAAAUAAAAAUGUUUAAAUUUUGUAAAUCACCUGAUGCCACUACACGAC", "bound/input enrichment": "2.2 ratio"}
{"Oligonucleotide": "UUACAGUCAUUGAUGGACUCUAUUUUUUUAUUAUUACUUGGACCUUGGUCGUUUUUAUACUAGCAAGAUGUCUUGUUUUAAUUUGUGUUUUUUUUGGGGGAGGGAGUGAACUUGCUGAUU", "bound/input enrichment": "2.67 ratio"}
{"Oligonucleotide": "GACCUCCUGAACUUCUAGCUUUCAAGCUGAGGCUGUUUUAGAUACUGGUUUUAUUUUCUUUACCAUUUUCCUGCCUUUCUUCCCCUGUUCCCAAGGUUUGACUCAUGGAUGUUACUCUUC", "bound/input enrichment": "0.72 ratio"}
{"Oligonucleotide": "GAGCUAAAGGAGUUAGCAUCUUUAUUUUUGUAUCAAAGACAAAGGUUAUUUUGAAAUUAUUAGGAUUUUUACACAACUGUGAAAUCUGUUGCUUUUGUAAACAAGUUGUUUGAUCUUAGG", "bound/input enrichment": "0.559 ratio"}
{"Oligonucleotide": "UCCAUGGCUGCUUUGUAUUACCUCAGUGAGUUACAGCCCCCCUUGGCAUUUAGUUGGUACUAGAGCCAGUCAUCCUUAACAAAUCUUUUCACAUUUUAUUUCUUUCACACAUAGUCAUCU", "bound/input enrichment": "3.87 ratio"}
{"Oligonucleotide": "ACGCUUUGACGUCAAGUUCAACAUCGCCUCGUGACCUCAGCCGCGGCCAGCGCUCACUUUGACACCGACACAAUGUAGAGAGAAUAAAAGAGUUGAGAUAAACACCACUAGUCUUUGAAC", "bound/input enrichment": "0.28 ratio"}
{"Oligonucleotide": "GAAUAUUAAAAAUCUUAAAUUACGCUGAGAUCCAGGCAGGUAUUUUGCAGGGCCAGGCCAUUGGACGGCGUUGCCGCCUUGUCUCGUCAUGUUUUUUUUUGGUUCUUUUUUUCAGAGCUG", "bound/input enrichment": "0.554 ratio"}
{"Oligonucleotide": "AAAAAAUUAAAGACGCUUGUUUGCACACCUUUUUCCCAUUGGAAAUGGAAUCCACUGCCUUAGGUCUUUUUAAAUAGUGUAUUAUUAUCGUUGGGGCUGGCUCUAUGCUUGAAAACCAGU", "bound/input enrichment": "1.68 ratio"}
{"Oligonucleotide": "UACUAGAGUCCUACCAGCCUGCCGGCCCCUCGUCUGUGCACAGCUUCCAACGUUACCGUCUAGCUAGAUUUUUAUUUAAAAUAUGAAAAACUGCUUUUCCCAAGACGUUUUUUAAAAACA", "bound/input enrichment": "0.609 ratio"}
{"data": "Series 2", "target": "Centromere-binding protein 1, full length, His-tagged (CBF1, Saccharomyces cerevisiae, UniProt P17106, residues 1-351)", "technique": "competition protein-binding microarray", "form": "double-stranded DNA, one strand shown", "sample": "in vitro", "concentration": "2 µM", "notes": "whole 60-bp probe, lowest competitor level", "added": "Pho4 competitor, 0.05 µM", "reading": "higher = stronger binding", "constant ends, left off below": "… GTCTTGATTCGCTTGACGCTGCTG", "UniProt P17106, sequence (whole entry, looked up)": "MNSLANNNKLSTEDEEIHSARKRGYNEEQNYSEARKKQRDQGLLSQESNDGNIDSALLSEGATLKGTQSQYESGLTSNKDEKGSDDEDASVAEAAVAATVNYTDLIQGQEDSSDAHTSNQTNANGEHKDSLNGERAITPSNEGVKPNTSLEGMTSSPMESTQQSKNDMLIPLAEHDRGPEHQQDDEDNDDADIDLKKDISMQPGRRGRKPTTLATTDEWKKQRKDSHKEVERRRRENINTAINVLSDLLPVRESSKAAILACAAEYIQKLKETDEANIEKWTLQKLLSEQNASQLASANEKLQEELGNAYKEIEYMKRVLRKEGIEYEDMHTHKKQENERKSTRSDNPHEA"}
{"Oligonucleotide": "TCATGGCCTCATCGGCACGTTTACTGAAGACGACGC", "fluorescence intensity [a.u.]": 79.6}
{"Oligonucleotide": "TCCAGGTTGCCCTGCAAGGTGACAGGGTTCTTGTTT", "fluorescence intensity [a.u.]": 51.2}
{"Oligonucleotide": "GACTTGACAGAGTGGCACGAGGCTCTGCCCATCTGT", "fluorescence intensity [a.u.]": 81.5}
{"Oligonucleotide": "TGCGCAACAACTTGGTAGGTGGGTGTATGTCTAGAA", "fluorescence intensity [a.u.]": 66.9}
{"Oligonucleotide": "TGCGCAACAACTTTTCACGTGATGTTATGTCTAGAA", "fluorescence intensity [a.u.]": 3490}
{"Oligonucleotide": "TGCGCAACAACTTGATTGGTGGGTGTATGTCTAGAA", "fluorescence intensity [a.u.]": 71.5}
{"Oligonucleotide": "TCATCGTCAGAACATCTCGTGACTCGAGCACTCGTC", "fluorescence intensity [a.u.]": 804}
{"Oligonucleotide": "CATACCCAACCTTTTCACGTGGTTTAAGATATTTGT", "fluorescence intensity [a.u.]": 1450}
{"Oligonucleotide": "TGCGCAACAACTTGAAGGGTGGGTGTATGTCTAGAA", "fluorescence intensity [a.u.]": 70.1}
{"Oligonucleotide": "GTCTTGTCTCATTGGGGGGTGGGTGTCCCCACTTCA", "fluorescence intensity [a.u.]": 80.7}
{"Oligonucleotide": "GTTTCTTTATTAGTGCGGTGATATACCTCATATTAT", "fluorescence intensity [a.u.]": 82.8}
{"Oligonucleotide": "CATTTAAAGCTAATGAAATGTACCTCTCGCTTCATT", "fluorescence intensity [a.u.]": 78.7}
{"Oligonucleotide": "ATCCTTTTGAATCGGCACGTGAATATACTAAAGCTT", "fluorescence intensity [a.u.]": 1660}
{"Oligonucleotide": "TTCTTTGGTGATTCTGGCGTGATGGAACATTCGTAT", "fluorescence intensity [a.u.]": 89.6}
{"Oligonucleotide": "CGTTATTGAAAATCTCACGTGATGGTATCCACTAAT", "fluorescence intensity [a.u.]": 3310}
{"Oligonucleotide": "TGCGCAACAACTTGTTCCGTGGGTGTATGTCTAGAA", "fluorescence intensity [a.u.]": 65.5}
{"Oligonucleotide": "TACTTTAAAGATATACACGCACGGAAATGGTTCCAA", "fluorescence intensity [a.u.]": 82.4}
{"Oligonucleotide": "CGAAAGAAAGCGAGTCACGATAACGGTGAGGTGATT", "fluorescence intensity [a.u.]": 106}
{"Oligonucleotide": "TCTTCTTTGCCACATCACCTGACGCACCAAAGACAG", "fluorescence intensity [a.u.]": 1380}
{"Oligonucleotide": "TCCCTGGGTCCCGGCCACGTGTAACGCTTCAACAAC", "fluorescence intensity [a.u.]": 720}
{"data": "Series 3", "target": "CCND2, cyclin fold, Cln2 fusion (human)", "technique": "yeast growth competition, sequencing", "sample": "yeast", "notes": "weak parent motif", "relative to": "not given", "reading": "higher = stronger binding", "starting sequence": "TICRR docking peptide (human); TKVRRNLFNQELL; partner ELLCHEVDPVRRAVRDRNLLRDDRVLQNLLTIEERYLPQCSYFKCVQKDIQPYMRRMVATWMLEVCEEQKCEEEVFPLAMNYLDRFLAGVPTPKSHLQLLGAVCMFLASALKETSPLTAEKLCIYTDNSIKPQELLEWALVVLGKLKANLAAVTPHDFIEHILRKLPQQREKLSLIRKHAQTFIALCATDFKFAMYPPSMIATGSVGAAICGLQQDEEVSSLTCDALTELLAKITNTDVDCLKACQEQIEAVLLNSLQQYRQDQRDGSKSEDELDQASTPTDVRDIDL"}
{"Variant": "R4A", "normalised enrichment score": -0.0212}
{"Variant": "N6A", "normalised enrichment score": 0.118}
{"Variant": "K2A", "normalised enrichment score": 0.681}
{"Variant": "Q10A", "normalised enrichment score": 0.107}
{"Variant": "V3A", "normalised enrichment score": -0.357}
{"Variant": "R5K F8L", "normalised enrichment score": 0.356}
{"Variant": "L7A", "normalised enrichment score": -0.244}
{"data": "Series 4", "target": "RNA binding protein fox-1 homolog 2, RRM domain, GST-SBP tag (RBFOX2, Homo sapiens, UniProt O43251-10, residues 100-194)", "technique": "RNA Bind-n-Seq", "form": "RNA", "sample": "in vitro", "concentration": "365 nM", "notes": "natural RNA segment, single round, ends assumed", "relative to": "no-protein control", "reading": "higher = stronger binding", "constant ends, left off below": "GGGAGUUCUACAGUCCGACGAUC … UGGAAUUCUCGGGUGCCAA", "Residues (chain)": "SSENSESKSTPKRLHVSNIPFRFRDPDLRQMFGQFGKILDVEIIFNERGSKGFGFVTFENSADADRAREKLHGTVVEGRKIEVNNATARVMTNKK"}
{"Oligonucleotide": "GCCCUUGUCAGCACUUCUUUUUUUAUACCUCCUCUCAAGGCCACGUAAGUUACCUAGCUCUACCUGACUGUGGAUAAAAGACAGUGCUCUACCCACCUGGUGGACCCAGG", "RBNS enrichment (R)": 0.292}
{"Oligonucleotide": "UGGCUUGAAUUAGACCACAAAGCUGGCUGUAUAUGGGAGAGUCCUUUGUUGCUUCCUUCCCUGGAGAGCAACACUACCUCCUGGGCUUUACCAAGCACCACCCUAACCUC", "RBNS enrichment (R)": 0.215}
{"Oligonucleotide": "GGUGCUUCACACACCAUUUAGGAGGCCACCCUAACGAGGCAAGAGGACAUGGGGGUGUGCAGAAGUUCUGUUCUUAGUGAGAAUGGCUGGCCUGAGAAUCCAGCUCACCU", "RBNS enrichment (R)": 0.657}
{"Oligonucleotide": "GCAUGUUCUGGGCUUAGCGACAGAGGCAAGCAAGGGACUGGUGUCUCUGGUGAGAGGUGGGUUUGAUGUAUCUCUGUCCUAUGCUGGUCUCUCUUCUCCUUUAUAAAAUC", "RBNS enrichment (R)": 15.5}
{"Oligonucleotide": "CAGGUCUUCCAUCUCCAAGAGGCCACUCUGUCCGGCCAGUGUCUGUUCAGGCCCACUGAAGAAGUGUGCAGAAGUCUUGGAAGUCUGUCCCCGCCCUGAAGAGCUUCAGA", "RBNS enrichment (R)": 0.334}
{"Oligonucleotide": "GUGGCUGCGGGCGUCUUGGUUGAAUCUUUUGCUACAAACCAUGUUUGCGUUUGAGCUCUCCAGGAUUUUACAUUUUUGGGUAACCUCAGUGAUUCCCAUUGGUGUAGGAA", "RBNS enrichment (R)": 2.49}
{"Oligonucleotide": "UUGUGAGGCCAAGGUGGGUGGAUCACCUGAGGUCAGGAGUUUGAGACCAGCCUGACCAAACAUGGCGAAACCCCAUCUGUACUGAAAAUACAAAAAUUAGGCAUGGUGGU", "RBNS enrichment (R)": 2.94}
{"Oligonucleotide": "UUUCUUCUCGUUGGGACUAUGUUUGUGAACAUGAGCGUCAUAAGUUAUGUUUCAGAUUUUCAAAUUUAUUUAUACGUGUUAUAAUGAAUGCUUCUAUUUAAAGGGGAAAU", "RBNS enrichment (R)": 0.477}
{"Oligonucleotide": "AAGUUCCCAAACCUCCUUGUGCCUCAGUUUCCCCAUCUGGAAAAAAUGGGGCCACCUCUUGCCAGCAGUAGCAGGGCUGCCCACGCCCCUUUCUCCCCAUGCCCCAUCCA", "RBNS enrichment (R)": 0.47}
{"Oligonucleotide": "UUUGAGAUGCAGAAUUCAUCUUUUUUGGAAUAUUUCCAUGGUGGAGCUCAGUCAUCACACUUCAAGAGCUGAGAACACUCUGAGCCCGGCAAGAAUACAGGACUUCUUAG", "RBNS enrichment (R)": 0.273}
{"Oligonucleotide": "CUUUUGUUCCUAUUCAGGACUUGAGGUAUAGUGCCAUAAAAUGUAGCAAAAACCCUAUCGGCCAGAUCAGUGUUACAUUGAUUCUAAGAUUACAGUAUGUCCCAUCAAAC", "RBNS enrichment (R)": 0.15}
{"Oligonucleotide": "GACGGACCCGCUGUGCCUUCUACCAUCGUUCCACCAUUGAUGUACAUACUCAUGUUUUACAUCUUUUCUUUCUGCCGCUCGGCUCCGGCCAUUUUGUUUUAUACAAAAAU", "RBNS enrichment (R)": 0.658}
{"data": "Further values, each from its own experiment"}
{"Substance": "PhoQ, residues 284 288 289 292 302 303 NLMGRA", "target": "PhoP, residues 12 14 15 18 19 LWHSL (Escherichia coli, UniProt P23836)", "test": "Sort-seq, item: YFP reporter", "system": "E. coli", "conditions": "PhoQ-PhoP variant library, added: 10 µM Mg2+", "how to read": "relative to: high Mg2+ state, higher = stronger signaling", "quantity": "fold induction", "value": "15 and 12"}
